# Experimental data pooled from the literature.
# Compare with care: the assays were run in different laboratories. Numbers after ± are the reported error.
Compound,assay,system,setting,scale,remaining compound
CC[C@H](C)C(=O)O[C@H]1C[C@@H](C)C=C2C=C[C@H](C)[C@H](CC[C@@H]3C[C@@H](O)CC(=O)O3)[C@H]21,,mouse liver microsomes,45 min,,not detected
CCOc1ccc2ccc(=O)oc2c1,,mouse liver microsomes,"1 µM, 10 min, pH 7.4",,7.9%
[15NH2][C@@H](CSSC[C@H]([15NH2])C(=O)O)C(=O)O,,0.1 M HCl stock solution,"3 µg/mL, 3 weeks, 4 °C",reference: freshly prepared,106%
Cn1cncc1-c1c(F)cncc1NC(=O)c1c(N)nn2cc(F)cnc12,,human EDTA plasma,"15 ng/mL, time not given, 3 freeze-thaw cycles at -80 °C, low QC",,105%
FC(F)=Cc1cc(C(F)(F)F)cc(C(F)(F)F)c1,HPLC-MS,HEPES buffer with 10% acetonitrile,"1 mM, 1 h, pH 7.4",,96%
O=C(O)c1ccc(-c2cc(NCCCN3CCCCC3)c3ccccc3n2)cc1,,human plasma,1 h,,100%
CC(C)[N+](C)(CCOC(=O)C1c2ccccc2Oc2ccccc21)C(C)C,,CD-1 mouse whole blood,"5 µM, 0 min",,100%
N#Cc1ccc(Nc2nc(N)cc(Oc3c(F)cc(-c4ccc(C#N)cc4)cc3F)n2)cc1,,human plasma,"1 µM, 0.00 h, pH 7.4, 37 °C",,100%
CC[N+]1(C)CCN(c2ccc(NC(=O)c3cccc(C)n3)cc2)CC1,,pooled BALB/c mouse plasma,"1 µM, 0.5 h",,98.1%
O=Cc1c(O)cc(C(F)(F)F)cc1C(F)(F)F,HPLC-MS,HEPES buffer with 10% acetonitrile,"1 mM, 1 h, pH 7.4",,96%
NC(=O)c1ccccc1NC(=O)c1ccc(-c2ccccc2)cc1,,human plasma,"2 µM, 0 h, 37 °C",,100%
N#Cc1ccccc1-c1cc(NCCCN2CCCCC2)c2ccccc2n1,,human liver microsomes,1 h,,15.4%
COc1cc2c3cc1Oc1c(OC)c(OC)cc4c1[C@@H](Cc1ccc(O)c(c1)Oc1ccc(cc1)C[C@@H]3N(C)CC2)N(C)CC4,,"mouse plasma, K3EDTA","4 h, 37 °C",,113%
CC(C)=CCC[C@](C)(O[C@@H]1O[C@H](CO[C@@H]2O[C@H](CO)[C@@H](O)[C@H](O)[C@H]2O)[C@@H](O)[C@H](O)[C@H]1O)[C@H]1CC[C@]2(C)[C@@H]1[C@H](O)C[C@@H]1[C@@]3(C)CC[C@H](O[C@@H]4O[C@H](CO)[C@@H](O)[C@H](O)[C@H]4O[C@@H]4O[C@H](CO)[C@@H](O)[C@H](O)[C@H]4O)C(C)(C)[C@@H]3CC[C@]12C,,rat plasma,"1 ng/mL, 24 h, room temperature",,98 ± 3.9%
CC(C)=CC(=O)CCC(=O)N1CCN(Cc2cc3nc(-c4cccc5[nH]ncc45)nc(N4CCOCC4)c3s2)CC1,,rat liver microsomes,"1 µM, 60 min, protein 0.5 mg/mL, with: NADPH",,1.5%
N#C[C@@]12C[C@@H]1[C@@H](n1cnc3c(N[C@@H](C4CCC4)C4CC4)nc(I)nc31)[C@H](O)[C@@H]2O,plasma stability,rat plasma,120 min,,100%
CC[C@H](C)[C@@H]([C@@H](CC(=O)N1CCC[C@H]1[C@H](OC)[C@@H](C)C(=O)N[C@@H](Cc1ccccc1)C(=O)NCCCO)OC)N(C)C(=O)[C@@H](NC(=O)[C@H](C(C)C)N(C)C)C(C)C,,human whole blood,"1 µM, 120 min",,55%
CN1CCN(C(=O)[C@H](CCCN[C@@H]2C[C@H]2c2ccc(F)cc2)NC(=O)c2ccc(-n3ccnn3)cc2)CC1,,aqueous buffer,"0 days, 37 °C",,100%
C=CC(=O)N1CCC(C(=O)N(C)CC(=O)N2CCN(c3nc(-c4cnc(N)nc4C(F)F)nc(N4CCOCC4)n3)CC2)CC1,,"microsomes, rat liver, male, Sprague-Dawley","1 µM, 60 min, 0.5 mg/mL microsomal protein, with: NADPH",,86.9%
N#Cc1ccc(-c2cc(NCCCN3CCCCC3)c3ccccc3n2)cc1,,human plasma,1 h,,94.7%
COc1ccc2cc3[n+](cc2c1OC)CCc1cc2c(cc1-3)OCO2,,human liver microsomes,"10 µM, 30 min, pH 7.4, with: microsomes 0.5 mg/mL",,78.9 ± 2.7%
CO[C@@H](C[C@H]1C(C)=CC[C@@H]2[C@]3(C)C[C@H](O[C@@H]4O[C@@H](C)[C@H](OC(=O)c5cccc(O)c5)[C@@H](O[C@@H]5O[C@H](CO)[C@@H](O)[C@H](O)[C@H]5NC(C)=O)[C@H]4O)[C@@H](O)C(C)(C)[C@H]3CC[C@]21C)[C@H](N)C(=O)O.O=C(O)C(F)(F)F,,simulated gastric fluid with pepsin,"1 µM, 30 min, pH 1.2",,100%
CSc1ncc(Br)c(C(=O)N[C@@H](CCC(=O)O)C(=O)N[C@@H](Cc2ccc3ccccc3c2)C(=O)N[C@@H](CC(C)C)C(=O)N[C@@H]2C[C@H]2c2ccccc2)n1,,pooled human plasma,"120 min, 37 °C",,95.6%
CCOC(=O)[C@H](CCc1ccccc1)N[C@@H](C)C(=O)N1CCC[C@H]1C(=O)O,,human plasma,"10 µM, 30 min",,92.7%
COc1ccc2[nH]c([S+]([O-])Cc3ncc(C)c(OC)c3C)nc2c1 (stereo not drawn),,simulated gastric fluid with pepsin,"1 µM, 240 min, pH 1.2",,0%
Cc1cc2ccccc2n1CCNC(=O)c1ccc(N2CCOCC2)cc1,,mouse liver microsomes,60 min,,< 1%
CCOC(=O)[C@H](CCc1ccccc1)N[C@@H](C)C(=O)N1CCC[C@H]1C(=O)O,,rat plasma,"1 µM, 2 h",,0%
O=C(Oc1coc(CSc2ncccn2)cc1=O)c1ccc([N+](=O)[O-])cc1,,RPMI with 10% FBS,"100 µM, 1 day",,60%
C#CCN(C)Cc1ccccc1,,aqueous buffer,"4 days, 37 °C",,98%
O=C(Nc1ccc(F)cc1)N1CCNCC1COc1ccc2c(c1)OCO2 (stereo not drawn),,mouse liver microsomes,90 min,,57 ± 1%
Cc1cc2ccccc2n1CCNC(=O)c1ccc(N2CCC(C(=O)O)CC2)cc1,,human liver microsomes,60 min,,> 50%
COc1ccc(-c2c(-c3ccc(C#N)c(F)c3)nc(N3CCC(N)CC3)n(C)c2=O)cc1F,,aqueous buffer,"0 days, 37 °C",,98%
CSc1nccc(C(=O)N[C@@H](CCC(=O)O)C(=O)N[C@@H](Cc2ccc3ccccc3c2)C(=O)N[C@@H](CC(C)C)C(=O)NC2CC2c2ccccc2)n1 (stereo partly drawn),,pooled human plasma,"15 min, 37 °C",,104%
OCc1nc2ccc(NCc3ccc(SC(F)(F)F)cc3)cc2[nH]1,,human liver S9,"1 µM, 90 min, pH 7.4",,> 80%
CNc1cc[n+](CCNC(=O)c2ccn3c(-c4c(C)noc4C)cnc3c2)cc1.[Cl-],,aqueous buffer,"initial, pH 10",,100 % peak area
CC(C)=CCC[C@](C)(O[C@@H]1O[C@H](CO)[C@@H](O)[C@H](O)[C@H]1O)[C@H]1CC[C@]2(C)[C@@H]1[C@H](O)C[C@@H]1[C@@]3(C)CC[C@H](O[C@@H]4O[C@H](CO)[C@@H](O)[C@H](O)[C@H]4O[C@@H]4O[C@H](CO)[C@@H](O)[C@H](O)[C@H]4O)C(C)(C)[C@@H]3CC[C@]12C,,rat plasma,"25 ng/mL, 24 h, room temperature",,96.9 ± 2%
C[C@H](CCC(=O)N[C@@H](CCC(=O)O[C@H]1C[C@H](n2cc(F)c(=O)[nH]c2=O)O[C@@H]1CO)C(=O)O)[C@H]1CC[C@H]2[C@@H]3[C@H](O)C[C@@H]4C[C@H](O)CC[C@]4(C)[C@H]3CC[C@]12C,,rat liver S9,"5 µM, 1 h, 37 °C, with: 1 mM NADPH",,6.8%
C=CC(=O)N1CCC(C(=O)NCC(=O)N2CCN(c3nc(-c4cnc(N)nc4C(F)F)nc(N4CCOCC4)n3)CC2)CC1,,"microsomes, rat liver, male, Sprague-Dawley","1 µM, 30 min, 0.5 mg/mL microsomal protein, with: NADPH",,93.2%
CCOC(=O)C1=C(CN2CCOCC2)NC(c2nccs2)=NC1c1ccc(F)cc1Br (stereo not drawn),,human liver microsomes,"1 µM, 60 min, pH 7.4",,10.2%

# For quick reference, copied from above:
Compound,assay,system,setting,scale,remaining compound
CNc1cc[n+](CCNC(=O)c2ccn3c(-c4c(C)noc4C)cnc3c2)cc1.[Cl-],,aqueous buffer,"initial, pH 10",,100 % peak area
CC(C)=CCC[C@](C)(O[C@@H]1O[C@H](CO)[C@@H](O)[C@H](O)[C@H]1O)[C@H]1CC[C@]2(C)[C@@H]1[C@H](O)C[C@@H]1[C@@]3(C)CC[C@H](O[C@@H]4O[C@H](CO)[C@@H](O)[C@H](O)[C@H]4O[C@@H]4O[C@H](CO)[C@@H](O)[C@H](O)[C@H]4O)C(C)(C)[C@@H]3CC[C@]12C,,rat plasma,"25 ng/mL, 24 h, room temperature",,96.9 ± 2%
C[C@H](CCC(=O)N[C@@H](CCC(=O)O[C@H]1C[C@H](n2cc(F)c(=O)[nH]c2=O)O[C@@H]1CO)C(=O)O)[C@H]1CC[C@H]2[C@@H]3[C@H](O)C[C@@H]4C[C@H](O)CC[C@]4(C)[C@H]3CC[C@]12C,,rat liver S9,"5 µM, 1 h, 37 °C, with: 1 mM NADPH",,6.8%
